Assay results from different studies.
Each line is one published result; not all experiments were run side by side. ± gives the spread as reported. ≈ marks a conversion by molar mass, not a printed value.
Chain of UniProt Q8NB78 (whole entry, looked up): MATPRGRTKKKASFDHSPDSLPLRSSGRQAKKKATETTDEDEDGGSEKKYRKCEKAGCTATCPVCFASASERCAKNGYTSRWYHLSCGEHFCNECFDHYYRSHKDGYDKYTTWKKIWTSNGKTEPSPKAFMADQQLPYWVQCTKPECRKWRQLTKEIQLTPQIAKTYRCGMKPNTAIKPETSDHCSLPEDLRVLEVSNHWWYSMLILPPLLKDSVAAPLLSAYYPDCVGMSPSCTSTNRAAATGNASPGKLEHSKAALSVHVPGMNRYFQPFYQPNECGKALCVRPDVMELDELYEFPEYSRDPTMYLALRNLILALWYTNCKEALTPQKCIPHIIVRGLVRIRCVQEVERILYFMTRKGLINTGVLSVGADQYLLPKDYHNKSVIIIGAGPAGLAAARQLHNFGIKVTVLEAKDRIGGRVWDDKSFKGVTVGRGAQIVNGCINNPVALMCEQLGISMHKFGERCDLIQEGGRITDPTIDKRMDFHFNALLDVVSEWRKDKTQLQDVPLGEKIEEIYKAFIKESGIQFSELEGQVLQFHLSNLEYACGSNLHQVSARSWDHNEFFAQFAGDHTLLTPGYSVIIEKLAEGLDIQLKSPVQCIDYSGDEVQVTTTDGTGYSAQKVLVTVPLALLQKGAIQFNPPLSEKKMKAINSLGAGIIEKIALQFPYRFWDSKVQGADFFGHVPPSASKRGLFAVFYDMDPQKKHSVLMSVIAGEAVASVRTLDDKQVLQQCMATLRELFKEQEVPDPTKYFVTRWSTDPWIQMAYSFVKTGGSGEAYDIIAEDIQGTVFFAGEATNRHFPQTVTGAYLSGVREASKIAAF

For `CC12CC(c3ccc(S(C)(=O)=O)cc3)C3=C4CCC(=O)C=C4CCC3C1CCC2(O)C(F)(F)C(F)(F)F` (stereo not shown), “mean residence time” read 49.7 h (human, plasma; intravenous, 15.7 µg, [14C] microdose, geometric mean).
Under “metabolite formation rate”, `NS(=O)(=O)c1ccc(-n2nc(C(F)(F)F)c(O)c2-c2ccc(F)cc2F)cc1` is recorded as 4.3 pmol/min/mg (substrate; male beagle dog liver microsomes; 20 µM, pH 7.4, mean of 0-90 and 0-60 min).
The Tmax of `CCCC[C@H](NC(C)=O)C(=O)N[C@H]1CC(=O)NCCCC[C@@H](C(=O)N[C@@H](C(=O)N2CCC[C@@H]2C(N)=O)C(C)C)NC(=O)[C@H](Cc2c[nH]c3ccccc23)NC(=O)[C@H](CCCN=C(N)N)NC(=O)[C@@H](Cc2ccc3ccccc3c2)NC(=O)[C@@H]2CCCN2C1=O` is reported as 1.1 ± 0.3 h (Beagle dog, both sexes, plasma; subcutaneous, once daily, 2.25 mg/kg, day 1).
The recovery of `O=S(=O)(c1ccccc1)N1CCCCC1` is reported as 85% (citrate buffer; 24 h, pH 4.5).
For `COc1ccc2cc(-c3ccc(-c4ccc(C)cn4)nc3)oc2c1`, “fluorescence quantum yield” read 0.25 (aqueous HEPES buffer; pH 7.4, added: quinine bisulfate reference).
Under “elimination rate constant”, `N=C(N)NCCC[C@H](NC(=O)[C@@H]1CCCN1C(=O)[C@H](Cc1ccccc1)NC(=O)[C@@H]1CCCN1C(=O)[C@H](Cc1c[nH]cn1)NC(=O)[C@@H](N)Cc1ccccc1)C(=O)O` is recorded as 0.0005 ± 0.000167 s⁻¹ (Sprague-Dawley rat male, plasma; oral gavage, 50 mg/kg).
`O=C1c2sc(-c3ccc(N4CCC(F)C4)nc3F)nc2CCN1c1cccnc1` (stereo not shown) — result for “peak brain uptake”: 2.7 % injected dose (PET imaging; rhesus monkey, whole brain; intravenous bolus).
Under “monocyte count increased incidence”, `Cn1c(=O)oc2ccc(-c3ccc(CC(C#N)NC(=O)C4CNCCCO4)c(F)c3)cc21` (stereo not shown) is recorded as 0% (human; oral, 20 mg once daily, TEAE, multiple ascending dose).
For `CC(C)(C)c1nc(-c2ccc(NC(=O)c3cccs3)cc2Cl)no1`, the thermodynamic solubility was 67.8 ± 6.4 µg/mL (≈ 187 µM) (PBS; 24 h, pH 7.4, room temperature).
For `Cc1ccc(OCC(=O)O)cc1`, the Cmax was 3890 ± 1350 ng/mL (Sprague-Dawley rat Crl:CD(SD), female, plasma; oral, 30 mg/kg/day of parent drug, day 90, 90-day repeated dosing).
Under “metabolite peak area”, `CCCC(CCC)NC(=O)c1ccc(O)c(O)c1` is recorded as ~15.2% (LC-MS; human liver microsomes; 10 µM of parent drug, 60 min, pH 7.4, added: NADPH; relative to: parent drug at time zero).
Under “patients with AST increase”, `CC(C)c1cnc(-c2cc(Cl)ccc2F)cc1Nc1ccncc1C(=O)NC(CO)CO` is recorded as 9.5% (patients, phase I monotherapy; oral, dose not given, grade 2).
`[64Cu+2].c1cnc(CNCc2ccc(CN3CCCN4CCNCCCN(CC4)CC3)cc2)nc1` has a tissue uptake of 6.12 ± 0.97 %ID/g (CXCR4 (human); NOD/SCID mice, U87 xenografts, U87 control tumour; 90 min post-injection).
`CCCC[C@H](NC(=O)CNC(=O)CNC(=O)CN1CCN(CC(=O)O)CCN(CC(=O)O)CCN(CC(=O)O)CC1)C(=O)N[C@H]1CC(=O)NCCCC[C@@H](C(N)=O)NC(=O)[C@H](Cc2c[nH]c3ccccc23)NC(=O)[C@H](CCCNC(=N)N)NC(=O)[C@@H](Cc2ccccc2)NC(=O)[C@H](Cc2c[nH]cn2)NC1=O` [gallium-67 labelled] gave a urinary excretion of 84.9 ± 2.81% (C57 mice, female, B16/F1 melanoma, urine; intravenous, 0.037 MBq, 2 h).
With `O=C([O-])CN1CCN(CC(=O)[O-])CCN(CC(=O)NC[C@H]2CC[C@H](C(=O)N[C@H](Cc3cnc4ccccc4c3)C(=O)NCCCC[C@H](NC(=O)N[C@@H](CCC(=O)O)C(=O)O)C(=O)O)CC2)CCN(CC(=O)[O-])CC1.[64Cu+2]` the absorbed dose was 0.013 mGy/MBq (PET/CT dosimetry; healthy human volunteers, stomach).
Under “amount retained in stratum corneum”, `C[C@@H](O)[C@H](NC(=O)[C@@H](NC(=O)[C@@H](N)CCCCN)[C@@H](C)O)C(=O)N[C@@H](CCCCN)C(=O)N[C@@H](CO)C(=O)O` is recorded as “not detected” (LC-MS/MS; hairless mouse, skin, Franz cell; 50 µg/cm^2 applied, 24 h).
`CC(=O)[CH](C(C)=O)[Pt-2]1([S+](C)C)[O]C(C)=CC(C)=[O+]1` (stereo not shown) has a creatinine of 0.42 ± 0.03 mg/dL (rat, blood; intravenous, 10 mg/kg, single dose).
For `COc1cc2c(cc1OC)CN(CCCCn1ccc3cc(OCC[18F])ccc31)C2`, the brain/blood ratio was 0.85 ± 0.16 (ICR mice, male; intravenous, 120 min).
`Cc1cc(O)cc(O)c1C(=O)c1c2c3c(c(O)cc(C)c3oc1=O)C(=O)c1c(O)cc(O)cc1-2` gave a lag time of 2.83 min (KM mouse male, plasma; intraperitoneal, 15 mg/kg).
The creatinine of `O=C(O)C1OC(OC2C(COS(=O)(=O)O)OC(OC3C(C(=O)O)OC(OC4C(COS(=O)(=O)O)OC(OC5C(C(=O)O)OC(OC6C(COS(=O)(=O)O)OC(OC7C(C(=O)O)OC(OC8C(COS(=O)(=O)O)OC(OC9C(C(=O)O)OC(OC%10C(COS(=O)(=O)O)OC(OC%11C(C(=O)O)OC(Oc%12ccc([N+](=O)[O-])cc%12)C(O)C%11O)C(NS(=O)(=O)O)C%10O)C(OS(=O)(=O)O)C9O)C(NS(=O)(=O)O)C8O)C(OS(=O)(=O)O)C7O)C(NS(=O)(=O)O)C6O)C(OS(=O)(=O)O)C5O)C(NS(=O)(=O)O)C4O)C(OS(=O)(=O)O)C3O)C(NS(=O)(=O)O)C2OS(=O)(=O)O)C(O)C(O)C1OC1OC(COS(=O)(=O)O)C(O)C(O)C1NS(=O)(=O)O` (stereo not shown) is reported as 0.42 ± 0.03 mg/dL (rats, serum; intravenous, 3600 µg/kg/day for 7 days, day 8).
With `CC[C@H](C)[C@@H]1NC(=O)[C@H](CCCNC(=N)N)NC(=O)[C@H](CC(=O)O)NC(=O)[C@H](CC(C)C)NC(=O)[C@H](CCCCN)NC(=O)[C@H](CC(C)C)NC(=O)CNC(=O)[C@H](Cc2ccccc2)NC(=O)[C@@H](NC(=O)CNC(=O)[C@H](CCCCN)NC(=O)[C@H](CO)NC(=O)[C@H](CC(C)C)NC(=O)CNC(=O)[C@H](CCCCN)NC(=O)[C@H](CCCCN)NC(=O)[C@H](CC(N)=O)NC(=O)[C@H](C)NC(=O)CNC(=O)[C@H](CCCCN)NC(=O)[C@H](Cc2ccc(O)cc2)NC(=O)[C@H](CCCCN)NC(=O)[C@H](CCCNC(=N)N)NC(=O)[C@H](C)NC(=O)[C@H](CC(N)=O)NC(=O)[C@@H]2CCCN2C(=O)[C@H](Cc2c[nH]cn2)NC(=O)[C@H](CCC(=O)O)NC(=O)[C@H](CCC(N)=O)NC(=O)[C@@H](N)CC(C)C)CSSC[C@@H](C(=O)O)NC(=O)CNC(=O)[C@H](CC(C)C)NC(=O)CNC(=O)[C@H](CO)NC(=O)[C@H](CCSC)NC(=O)[C@H](CO)NC(=O)CNC1=O` the apparent half-life was ~120 h (healthy adult men, plasma; subcutaneous, released from prodrug, single dose, added: TransCon CNP prodrug).
Under “elimination rate constant”, `Oc1ccc2ccccc2c1/N=N/c1ccc(/N=N/c2ccccc2)cc1` is recorded as 8.05e-05 s⁻¹ (Sprague-Dawley rats both sexes, whole blood; oral, 50 mg/kg).
For `O=C([O-])CN(CCN(CC(=O)[O-])CC(=O)[O-])CC(=O)[O-].[Co+2]`, “second-order rate constant” read 8 ± 0.333 M⁻¹ s⁻¹ (metal exchange with Zn2+, UV/Vis; 100 µM metal chelate, pH 7.4, 37 °C, added: 100 µM ZnCl2).
The blood triglycerides of `C=C(c1ccc(C(=O)O)c(F)c1)c1cc2c(cc1C)C(C)(C)C=CC2(C)C` is reported as 286 ± 73.7 mg/dL (Sprague-Dawley rat, male; oral, 100 mg/kg, 12 h, sesame oil vehicle).
`CC(C)(Sc1cc[n+]([O-])cc1-c1ccc(C#N)c2ccccc12)C(=O)OC1OC(C(=O)O)C(O)C(O)C1O` (stereo not shown): “renal clearance decrease” 61% (urine; oral, 15 mg, moderate renal impairment; relative to: normal renal function).
`O=C(NCC1CO1)Oc1ccc([N+](=O)[O-])cc1` (racemic) — result for “non-enzymatic hydrolysis rate”: 0.18 ± 0.04 nmol/min (50 µM, pH 9.0, 37 °C, no enzyme).
`CC(C)C[C@@H](NC(=O)[C@H](NC(=O)[C@H]1CCCN1)[C@H](C)O)C(=O)N[C@H](Cc1c[nH]cn1)C(=O)N[C@@H](C(=O)N[C@H](Cc1c[nH]cn1)C(=O)N[C@H](CC(N)=O)C(=O)N[C@H](CCCNC(=N)N)C(=O)N[C@H](CCCNC(=N)N)C(=O)N[C@H](CCCNC(=N)N)C(=O)N[C@H](CCCNC(=N)N)C(=O)N[C@H](CCCNC(=N)N)C(N)=O)[C@H](C)O` has a Tmax of 0.05 h (Beagle dogs both sexes, plasma; intravenous, 3 mg/kg).
Under “metabolite to parent ratio”, `Cc1[nH]nc2c1N=C(c1ccccc1Cl)c1cnc(NCCOCCO)cc1N2` is recorded as 0.07% (human male, plasma; oral, 10 mg, 0-120 h; relative to: metabolite AUC over parent AUC).
For `NC12CNCCNCC(NCc3ccc(CNC(=O)CCCC(=O)NCc4ccc(-c5nncnn5)cc4)cc3)(CNCCNC1)CNCCNC2.[64Cu+2]`, “mean absorbed dose” read 0.0281 rad/mCi (OLINDA dosimetry; breasts; pretargeting, 120-h interval).
`COc1ccc(CCCN[C@H]2CCC[C@@H]2CN[C@H]2CCC[C@@H]2CNCCCCN[C@H]2CCC[C@@H]2CN)cc1` gave a Ki of 4.4 µM (Lysine-specific histone demethylase 2 (KDM1B, Homo sapiens, UniProt Q8NB78); enzyme activity, inhibitor).
`[11CH3]c1ccc2nc(C3CCC3)n(-c3ccc4[nH]ncc4c3)c2n1`: “absorbed radiation dose” 12.9 µSv/MBq (standard human adult, liver).
For `O=C([O-])CN1CCN(CC(=O)[O-])CCN(CC(=O)NCCc2ccc3c(c2)C2C=CCC2C(c2cc4c(cc2Br)OCO4)N3)CCN(CC(=O)[O-])CC1.[111In+3]` (stereo not shown), the tissue uptake was 0.3 ± 0.08 %ID/g (mouse, Hec50 endometrial tumour, stomach; 4 h post injection).
Under “elimination rate constant”, `Cc1ccc(/N=N/c2c(O)ccc3ccccc23)c(C)c1` is recorded as 0.000106 s⁻¹ (Sprague-Dawley rats both sexes, whole blood; oral, 50 mg/kg).
With `CC(=O)N[C@H](CC(=O)O)C(=O)N[C@H](Cc1c[nH]c2ccccc12)C(=O)N[C@H](Cc1ccccc1)C(=O)N[C@H](CCCCN)C(=O)N[C@H](C)C(=O)N[C@H](Cc1ccccc1)C(=O)N[C@H](Cc1ccc(O)cc1)C(=O)N[C@H](CC(=O)O)C(=O)N[C@H](CCCCN)C(=O)N[C@@H](C(=O)N[C@H](C)C(=O)N[C@H](CCC(=O)O)C(=O)N[C@H](CCCCN)C(=O)N[C@H](Cc1ccccc1)C(=O)N[C@H](CCCCN)C(=O)N[C@H](CCC(=O)O)C(=O)N[C@H](C)C(=O)N[C@H](Cc1ccccc1)C(N)=O)C(C)C` the AUC(0-t) was 22.7 ng·h/mL (statin-treated high-risk CHD men, plasma; oral, 300 mg daily, day 13, 0 to 8 h, mean, undetectable set to 0).

Some of these lines once more:
With `CC[C@H](C)[C@@H]1NC(=O)[C@H](CCCNC(=N)N)NC(=O)[C@H](CC(=O)O)NC(=O)[C@H](CC(C)C)NC(=O)[C@H](CCCCN)NC(=O)[C@H](CC(C)C)NC(=O)CNC(=O)[C@H](Cc2ccccc2)NC(=O)[C@@H](NC(=O)CNC(=O)[C@H](CCCCN)NC(=O)[C@H](CO)NC(=O)[C@H](CC(C)C)NC(=O)CNC(=O)[C@H](CCCCN)NC(=O)[C@H](CCCCN)NC(=O)[C@H](CC(N)=O)NC(=O)[C@H](C)NC(=O)CNC(=O)[C@H](CCCCN)NC(=O)[C@H](Cc2ccc(O)cc2)NC(=O)[C@H](CCCCN)NC(=O)[C@H](CCCNC(=N)N)NC(=O)[C@H](C)NC(=O)[C@H](CC(N)=O)NC(=O)[C@@H]2CCCN2C(=O)[C@H](Cc2c[nH]cn2)NC(=O)[C@H](CCC(=O)O)NC(=O)[C@H](CCC(N)=O)NC(=O)[C@@H](N)CC(C)C)CSSC[C@@H](C(=O)O)NC(=O)CNC(=O)[C@H](CC(C)C)NC(=O)CNC(=O)[C@H](CO)NC(=O)[C@H](CCSC)NC(=O)[C@H](CO)NC(=O)CNC1=O` the apparent half-life was ~120 h (healthy adult men, plasma; subcutaneous, released from prodrug, single dose, added: TransCon CNP prodrug).
Under “elimination rate constant”, `Oc1ccc2ccccc2c1/N=N/c1ccc(/N=N/c2ccccc2)cc1` is recorded as 8.05e-05 s⁻¹ (Sprague-Dawley rats both sexes, whole blood; oral, 50 mg/kg).
For `O=C([O-])CN(CCN(CC(=O)[O-])CC(=O)[O-])CC(=O)[O-].[Co+2]`, “second-order rate constant” read 8 ± 0.333 M⁻¹ s⁻¹ (metal exchange with Zn2+, UV/Vis; 100 µM metal chelate, pH 7.4, 37 °C, added: 100 µM ZnCl2).
